Measured values pooled from the literature.
Compare with care: the assays were run in different laboratories. Values joined by “and” are separate records of one study, mostly repeats; a detail may differ. ± gives the spread as reported.
Tumor necrosis factor receptor superfamily member 9/Nectin-4: Tumor necrosis factor receptor superfamily member 9/Nectin-4 (Homo sapiens, UniProt Q07011+Q96NY8)
Chain of UniProt Q96NY8 (whole entry, looked up): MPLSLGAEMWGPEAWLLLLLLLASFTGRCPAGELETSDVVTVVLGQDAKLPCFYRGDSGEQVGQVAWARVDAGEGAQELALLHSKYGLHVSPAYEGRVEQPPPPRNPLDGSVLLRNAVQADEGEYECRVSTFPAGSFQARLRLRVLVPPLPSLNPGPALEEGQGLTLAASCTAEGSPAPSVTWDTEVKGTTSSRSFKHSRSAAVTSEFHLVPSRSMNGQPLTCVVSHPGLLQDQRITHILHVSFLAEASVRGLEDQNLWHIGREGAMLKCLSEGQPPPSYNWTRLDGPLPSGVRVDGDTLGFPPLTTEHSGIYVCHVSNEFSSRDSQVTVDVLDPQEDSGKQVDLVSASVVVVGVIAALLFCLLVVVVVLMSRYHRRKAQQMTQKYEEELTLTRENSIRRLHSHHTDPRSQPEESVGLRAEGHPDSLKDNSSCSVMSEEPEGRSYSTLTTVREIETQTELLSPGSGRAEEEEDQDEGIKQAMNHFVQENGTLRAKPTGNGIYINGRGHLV
Chain of UniProt Q07011 (whole entry, looked up): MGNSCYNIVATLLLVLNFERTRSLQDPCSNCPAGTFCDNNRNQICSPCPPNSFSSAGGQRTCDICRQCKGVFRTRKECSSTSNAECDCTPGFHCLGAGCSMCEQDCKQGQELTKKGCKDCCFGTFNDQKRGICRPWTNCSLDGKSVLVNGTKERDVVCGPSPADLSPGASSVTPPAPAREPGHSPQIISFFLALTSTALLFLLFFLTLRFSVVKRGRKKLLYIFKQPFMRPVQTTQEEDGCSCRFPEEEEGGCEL
T1: RNA, tetracycline-neomycin hybrid riboswitch; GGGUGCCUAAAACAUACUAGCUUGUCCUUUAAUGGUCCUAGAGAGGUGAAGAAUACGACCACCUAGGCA
T2: ssDNA, aptamer; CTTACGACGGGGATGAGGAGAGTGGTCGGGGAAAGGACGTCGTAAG
T3: RNA, 2'-deoxy at 37-40 (Fusobacterium nucleatum); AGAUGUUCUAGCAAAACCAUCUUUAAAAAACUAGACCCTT
Chain of UniProt Q80VM9 (whole entry, looked up): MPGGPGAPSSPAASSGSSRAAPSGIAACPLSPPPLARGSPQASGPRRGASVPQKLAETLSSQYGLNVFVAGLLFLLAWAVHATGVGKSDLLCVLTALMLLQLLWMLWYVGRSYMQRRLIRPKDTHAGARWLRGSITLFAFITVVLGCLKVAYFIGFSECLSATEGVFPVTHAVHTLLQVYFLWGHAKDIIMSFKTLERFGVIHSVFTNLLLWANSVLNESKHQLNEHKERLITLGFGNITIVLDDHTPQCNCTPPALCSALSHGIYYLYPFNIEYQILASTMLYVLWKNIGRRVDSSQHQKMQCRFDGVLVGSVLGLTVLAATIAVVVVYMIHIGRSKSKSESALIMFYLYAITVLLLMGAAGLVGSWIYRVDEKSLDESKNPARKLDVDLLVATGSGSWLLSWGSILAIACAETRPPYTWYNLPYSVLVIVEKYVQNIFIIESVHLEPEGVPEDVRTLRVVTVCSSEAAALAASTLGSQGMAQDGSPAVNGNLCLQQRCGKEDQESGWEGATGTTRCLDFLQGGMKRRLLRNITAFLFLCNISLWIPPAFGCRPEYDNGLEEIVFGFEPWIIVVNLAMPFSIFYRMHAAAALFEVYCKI
Chain of UniProt Q64663 (whole entry, unmodified, looked up): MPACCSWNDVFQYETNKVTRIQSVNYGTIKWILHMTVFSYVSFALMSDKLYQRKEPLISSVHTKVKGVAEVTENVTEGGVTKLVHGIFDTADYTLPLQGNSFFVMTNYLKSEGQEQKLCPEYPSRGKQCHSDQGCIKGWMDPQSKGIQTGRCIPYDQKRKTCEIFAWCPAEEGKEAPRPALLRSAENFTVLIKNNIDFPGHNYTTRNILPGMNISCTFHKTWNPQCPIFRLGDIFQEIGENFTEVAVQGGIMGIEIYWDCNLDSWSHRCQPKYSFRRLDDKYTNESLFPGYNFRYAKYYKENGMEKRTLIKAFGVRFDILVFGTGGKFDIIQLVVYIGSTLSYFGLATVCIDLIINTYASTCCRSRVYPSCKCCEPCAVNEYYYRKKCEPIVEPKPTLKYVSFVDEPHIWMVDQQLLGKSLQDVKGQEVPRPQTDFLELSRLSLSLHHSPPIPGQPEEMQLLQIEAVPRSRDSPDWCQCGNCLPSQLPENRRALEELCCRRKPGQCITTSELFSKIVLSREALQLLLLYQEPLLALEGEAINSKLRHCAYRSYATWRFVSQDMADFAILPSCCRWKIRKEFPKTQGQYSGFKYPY
Chain of UniProt Q96S37 (whole entry, looked up): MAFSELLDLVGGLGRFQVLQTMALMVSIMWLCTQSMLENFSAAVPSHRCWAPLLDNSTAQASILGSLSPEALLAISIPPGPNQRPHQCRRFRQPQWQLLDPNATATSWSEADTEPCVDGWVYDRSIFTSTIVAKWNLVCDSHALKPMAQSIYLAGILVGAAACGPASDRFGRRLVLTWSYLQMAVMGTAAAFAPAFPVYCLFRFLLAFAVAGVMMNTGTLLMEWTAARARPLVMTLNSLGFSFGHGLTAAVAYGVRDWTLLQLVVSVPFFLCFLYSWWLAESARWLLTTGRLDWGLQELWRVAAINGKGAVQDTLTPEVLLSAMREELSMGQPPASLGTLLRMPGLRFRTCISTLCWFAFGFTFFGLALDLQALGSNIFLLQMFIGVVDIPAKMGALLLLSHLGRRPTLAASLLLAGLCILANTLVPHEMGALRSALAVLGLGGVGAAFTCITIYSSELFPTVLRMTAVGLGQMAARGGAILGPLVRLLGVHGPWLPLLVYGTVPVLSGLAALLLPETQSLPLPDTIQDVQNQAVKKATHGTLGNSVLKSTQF
Chain of UniProt P51575 (whole entry, unmodified, looked up): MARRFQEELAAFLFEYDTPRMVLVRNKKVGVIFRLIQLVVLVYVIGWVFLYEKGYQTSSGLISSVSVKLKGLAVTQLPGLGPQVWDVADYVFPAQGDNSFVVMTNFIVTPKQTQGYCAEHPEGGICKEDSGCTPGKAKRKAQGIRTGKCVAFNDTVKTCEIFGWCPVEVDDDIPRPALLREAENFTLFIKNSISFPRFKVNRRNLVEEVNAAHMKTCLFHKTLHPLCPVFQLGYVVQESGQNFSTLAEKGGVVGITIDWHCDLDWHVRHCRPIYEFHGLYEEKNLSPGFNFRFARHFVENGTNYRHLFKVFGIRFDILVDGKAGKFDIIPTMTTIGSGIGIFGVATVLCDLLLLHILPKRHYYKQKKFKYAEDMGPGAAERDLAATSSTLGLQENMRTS
Chain of UniProt P41595 (whole entry, looked up): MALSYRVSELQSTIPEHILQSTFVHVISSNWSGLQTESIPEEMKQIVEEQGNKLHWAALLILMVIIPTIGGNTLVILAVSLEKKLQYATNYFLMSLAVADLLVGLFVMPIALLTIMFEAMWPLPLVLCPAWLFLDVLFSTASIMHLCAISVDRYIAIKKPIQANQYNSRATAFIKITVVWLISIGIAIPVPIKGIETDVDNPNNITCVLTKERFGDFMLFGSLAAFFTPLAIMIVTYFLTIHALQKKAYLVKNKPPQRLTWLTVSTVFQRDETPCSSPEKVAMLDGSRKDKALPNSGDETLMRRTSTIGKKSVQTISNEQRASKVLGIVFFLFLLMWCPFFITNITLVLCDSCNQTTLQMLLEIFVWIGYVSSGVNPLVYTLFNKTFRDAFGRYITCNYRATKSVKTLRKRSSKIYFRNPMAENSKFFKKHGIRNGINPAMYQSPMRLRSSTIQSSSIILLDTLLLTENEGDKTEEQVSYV
Chain of UniProt Q9KCC6 (whole entry, unmodified, looked up): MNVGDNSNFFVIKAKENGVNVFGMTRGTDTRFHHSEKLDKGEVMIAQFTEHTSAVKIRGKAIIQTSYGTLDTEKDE
Chain of UniProt Q15059 (whole entry, unmodified, looked up): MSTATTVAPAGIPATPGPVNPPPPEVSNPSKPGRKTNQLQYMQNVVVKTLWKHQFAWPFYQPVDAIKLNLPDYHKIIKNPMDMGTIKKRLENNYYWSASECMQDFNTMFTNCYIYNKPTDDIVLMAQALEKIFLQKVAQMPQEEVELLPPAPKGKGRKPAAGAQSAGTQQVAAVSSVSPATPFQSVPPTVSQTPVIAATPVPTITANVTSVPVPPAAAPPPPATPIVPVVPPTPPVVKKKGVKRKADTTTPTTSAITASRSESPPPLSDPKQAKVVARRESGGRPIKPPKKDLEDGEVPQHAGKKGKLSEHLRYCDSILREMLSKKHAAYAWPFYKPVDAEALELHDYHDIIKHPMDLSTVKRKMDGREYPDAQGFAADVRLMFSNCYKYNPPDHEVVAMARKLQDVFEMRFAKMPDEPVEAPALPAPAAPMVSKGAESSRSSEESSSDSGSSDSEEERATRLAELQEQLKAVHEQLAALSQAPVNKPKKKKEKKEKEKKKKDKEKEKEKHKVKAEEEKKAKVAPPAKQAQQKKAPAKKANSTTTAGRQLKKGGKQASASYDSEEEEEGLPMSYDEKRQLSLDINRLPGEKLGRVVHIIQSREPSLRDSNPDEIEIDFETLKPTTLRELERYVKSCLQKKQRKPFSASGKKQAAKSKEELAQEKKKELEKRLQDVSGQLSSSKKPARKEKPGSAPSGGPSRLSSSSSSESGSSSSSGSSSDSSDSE
Chain of UniProt P45983 (whole entry, looked up): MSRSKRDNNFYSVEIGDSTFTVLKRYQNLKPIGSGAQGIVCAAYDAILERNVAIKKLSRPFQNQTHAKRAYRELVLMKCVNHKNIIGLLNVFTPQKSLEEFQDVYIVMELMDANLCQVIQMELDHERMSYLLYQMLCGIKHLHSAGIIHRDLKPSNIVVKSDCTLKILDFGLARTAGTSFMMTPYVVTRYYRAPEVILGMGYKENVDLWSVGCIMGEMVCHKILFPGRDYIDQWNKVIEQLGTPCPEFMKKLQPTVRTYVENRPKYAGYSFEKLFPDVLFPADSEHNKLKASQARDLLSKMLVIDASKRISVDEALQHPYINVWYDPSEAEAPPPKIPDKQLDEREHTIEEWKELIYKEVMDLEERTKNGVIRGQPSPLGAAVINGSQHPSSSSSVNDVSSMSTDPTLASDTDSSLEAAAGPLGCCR
Chain of UniProt P48729 (whole entry, looked up): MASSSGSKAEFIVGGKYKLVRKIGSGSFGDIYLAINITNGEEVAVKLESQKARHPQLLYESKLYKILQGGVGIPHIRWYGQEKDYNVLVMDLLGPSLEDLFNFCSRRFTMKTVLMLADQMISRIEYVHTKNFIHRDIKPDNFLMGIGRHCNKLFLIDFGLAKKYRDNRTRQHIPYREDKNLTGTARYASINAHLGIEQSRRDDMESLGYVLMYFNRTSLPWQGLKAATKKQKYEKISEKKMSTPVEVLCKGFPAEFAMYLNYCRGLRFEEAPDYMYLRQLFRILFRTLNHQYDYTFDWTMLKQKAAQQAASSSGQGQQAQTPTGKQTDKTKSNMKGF

Structure (SMILES)	target	test	test system	setting	how to read	quantity	value
Nc1ncnc2c1ncn2[C@@H]1O[C@H](COP(=O)(O)CP(=O)(O)OP(=O)(O)O)[C@@H](O)[C@H]1O	P2X purinoceptor 1 (P2RX1, Homo sapiens, UniProt P51575, R139P)	calcium influx	–	316 nM	reference: ionomycin response	calcium influx	22.3% and 20.3% and 13.1%
CC(=O)Nc1ccc(S(=O)(=O)N2CCN(CC(O)COc3ccc4ccccc4c3)CC2)cc1 (stereo not shown)	Sodium channel protein type 8 subunit alpha, C-terminal domain (SCN8A, Homo sapiens, UniProt Q9UQD0)	binder, SPR	–	–	–	koff	0.0185 ± 0.00048 s⁻¹
COc1cccc(C(=O)Nc2ccc3c(c2)CN(C2CCC(=O)NC2=O)C3=O)c1 (stereo not shown)	Cereblon/Casein kinase I alpha (CSNK1A1/CRBN, Homo sapiens, UniProt P48729+Q96SW2)	degrader, live-cell HiBiT kinetic	HEK293 LgBiT	10 µM	–	degradation rate constant	1.9 h⁻¹
CN(C)[C@@H]1C(=O)C(C(N)=O)=C(O)[C@@]2(O)C(=O)C3=C(O)c4c(O)cccc4[C@@](C)(O)[C@H]3C[C@@H]12	T1, RNA, tetracycline-neomycin hybrid riboswitch	in-line probing	–	72 h, Mg2+ 10 mM, K+ 100 mM	–	binding	binds
O=c1nc(SCc2cc(F)cc(C(F)(F)F)c2)nc(SCc2csc3ccc(Cl)cc23)[nH]1	TOP2A (Homo sapiens, UniProt P11388)	decatenation	–	7.8 µM, replicate 1	–	decatenated DNA	94.5%
CCc1oc2ccccc2c1C(=O)c1cc(Br)c(O)c(Br)c1	SLC22A12 (Homo sapiens, UniProt Q96S37)	urate uptake	HEK-293T	0.5 µM, 10 min, 37 °C, added: [14C]urate 200 µM	–	inhibition	68.5% and 73% and 69.3% and 62.9% and 68%
O=C(C=Cc1ccc(F)cc1)Nc1cc(-c2ccnc(N3CCC(O)CC3)c2)ccn1	Nuclear receptor subfamily 4 group A member 1 (NR4A1, Homo sapiens, UniProt P22736)	SPR	–	10.0 µM	–	binding response	25.2 RU
CC(=O)N[C@H](C(=O)N1C[C@H](O)C[C@H]1C(=O)NCc1ccc(-c2scnc2C)cc1)C(C)(C)SCCCCCCNC(=O)C[C@@H]1N=C(c2ccc(Cl)cc2)c2c(sc(C)c2C)-n2c(C)nnc21	VHL/BRD3, BD2; with Elongin B/C (Homo sapiens, UniProt P40337+Q15059)	ternary complex binding, ITC	–	25 °C, added: VHL-ElonginB-ElonginC titrated into compound:PROTAC:Brd3^BD2 complex	–	ΔG	-9.7 ± 0.2 kcal/mol
Cc1cc(Nc2cc(N3CCN(C)CC3)nc(Sc3ccc(NC(=O)C4CC4)cc3)n2)[nH]n1	ACVR1B (Homo sapiens, UniProt P36896)	kinase activity, KinaseProfiler	–	0.03 µM, species human	reference: control	remaining activity	100%
Nc1nnc(-c2cccc(Cl)c2Cl)c(N)n1	SCN5A (Homo sapiens, UniProt Q14524)	sodium current block kinetics	–	25 µM	–	fast recovery time constant	0.79 s
CC(C)[C@@H](Nc1nc(I)nc2c1ncn2[C@H]1[C@H](O)[C@H](O)[C@]2(C#N)C[C@H]12)C1CC1	HTR2B (Homo sapiens, UniProt P41595)	radioligand binding	–	added: [3H]LSD	reference: 4′-cyano over 4′-CH2OH analogue	affinity gain	5.3 fold and 5 fold
NCCCS(=O)(=O)O	SLC6A6 (Homo sapiens, UniProt P31641, Y138A)	binding, microscale thermophoresis	–	3.91 µM, room temperature, added: 50 nM labelled protein	higher = more binding	normalised MST signal	0.0635
CCCC[C@@H]1NC(=O)[C@H](Cc2ccc(O)cc2)NC(=O)[C@@H]2CCCN2C(=O)[C@H](CC(=O)O)NC(=O)[C@H](C)NC(=O)[C@H](Cc2ccccc2)NC(=O)[C@@H]2CSCCC(=O)N3CN(CN(C3)C(=O)CCSC[C@@H](C(=O)N[C@@H](C)C(N)=O)NC1=O)C(=O)CCSC[C@H](NC(=O)[C@H](C)NC(C)=O)C(=O)N[C@@H]([C@@H](C)CC)C(=O)N[C@@H](CCC(=O)O)C(=O)N[C@@H](CCC(=O)O)C(=O)N[C@H](CCCCNC(=O)CCc1cn(CCOCCOCCOCCN(CCOCCOCCOCCC(=O)N[C@H]3CSCCC(=O)N4CN5CN(C4)C(=O)CCSC[C@H](NC(=O)[C@@H](CC(=O)O)NC(=O)[C@H](Cc4cccc6ccccc46)NC(=O)[C@@H]4CCCN4C3=O)C(=O)N[C@@H](CCSC)C(=O)N[C@@H](CCCCNC(=N)N)C(=O)N[C@@H](CC(=O)O)C(=O)N[C@@H](Cc3c[nH]c4ccccc34)C(=O)N[C@@H](CO)C(=O)N[C@@H]([C@@H](C)O)C(=O)N3CCC[C@H]3C(=O)N3C[C@H](O)C[C@H]3C(=O)N[C@@H](Cc3c[nH]c4ccccc34)C(=O)N[C@H](C(N)=O)CSCCC5=O)CCOCCOCCOCCn3cc(CCC(=O)NCCCC[C@H]4NC(=O)[C@H](CCC(=O)O)NC(=O)[C@H](CCC(=O)O)NC(=O)[C@H]([C@@H](C)CC)NC(=O)[C@@H](NC(=O)[C@H](C)NC(C)=O)CSCCC(=O)N5CN6CN(C5)C(=O)CCSC[C@H](NC(=O)[C@H](Cc5ccc(O)cc5)NC(=O)[C@H](CCC(N)=O)NC4=O)C(=O)N[C@@H](Cc4ccccc4)C(=O)N[C@@H](C)C(=O)N[C@@H](CC(=O)O)C(=O)N4CCC[C@H]4C(=O)N[C@@H](Cc4ccc(O)cc4)C(=O)N[C@@H](CCCC)C(=O)N[C@H](C(=O)N[C@@H](C)C(N)=O)CSCCC6=O)nn3)nn1)C(=O)N[C@@H](CCC(N)=O)C(=O)N[C@@H](Cc1ccc(O)cc1)C(=O)N2	Tumor necrosis factor receptor superfamily member 9/Nectin-4	reporter gene, agonist	HT-1376 coculture with reporter cells	–	reference: background	Emax	46 fold
Nc1ncnc2c1ncn2[C@@H]1O[C@H](COP(=O)(O)OP(=O)(O)O)[C@@H](O)[C@H]1O	T2, ssDNA, aptamer	ITC	–	–	–	Kd	207 µM
COc1cc(-c2cc(C(C)=O)n3ccccc23)c(OC)cc1Cn1ccnc1	KAT2A (Homo sapiens, UniProt Q92830)	–	–	–	–	ΔTm	2.4 °C
Nc1ncnc2c1ncn2[C@@H]1O[C@H](COP(=O)(O)OP(=O)(O)OP(=O)(O)O)[C@@H](O)[C@H]1O	P2X purinoceptor 7 (P2rx7, Rattus norvegicus, UniProt Q64663, I214A/R125A)	ion current, agonist, two-electrode voltage clamp	Xenopus laevis oocytes	33 µM	reference: highest concentration response	normalized current	0.233 and 0.219 and 0.192
Cc1ncsc1-c1ccc(CNC(=O)[C@@H]2C[C@H](O)CN2C(=O)[C@@H](NC(=O)C2(F)CC2)C(C)(C)C)c(OCCOc2ccc(CN3CCN(c4cc(-c5ccccc5O)nnc4N)CC3)cc2)c1	Protein polybromo-1, BD5 (PBRM1, Homo sapiens, UniProt Q86U86)	ternary complex binding, TR-FRET competition	–	added: VCB complex	–	cooperativity factor alpha	1
O=C(CN1CCO[C@@H](COc2ccccn2)C1)N1CCc2ccccc21	DRD4 (Homo sapiens, UniProt P21917)	radioligand binding	–	concentration not given, added: [3H]N-methylspiperone	–	inhibition	0.4%
Nc1nc2c(ncn2[C@@H]2O[C@H](COP(=O)(O)O)[C@@H](O)[C@H]2O)c(=O)[nH]1	GUK1 (Homo sapiens, UniProt Q16774, R44A)	binding, ITC	–	–	–	ΔH	-7.72 ± 0.83 kcal/mol
Cc1ccc(C(=O)Nc2ccc3ccccc3c2)o1	Otop1 (Mus musculus, UniProt Q80VM9)	ion current, whole-cell voltage ramp	–	10 µM, added: NMDG bath solution	–	reversal potential	49.5 mV and 54.8 mV and 50.7 mV and 59.2 mV and 64.3 mV
CCCC[C@@H]1NC(=O)[C@H](Cc2ccc(O)cc2)NC(=O)[C@@H]2CCCN2C(=O)[C@H](CC(=O)O)NC(=O)[C@H](C)NC(=O)[C@H](Cc2ccccc2)NC(=O)[C@@H]2CSCCC(=O)N3CN(CN(C3)C(=O)CCSC[C@@H](C(=O)N[C@@H](CNC(=O)CCc3cn(CCOCCOCCOCCOCCOCCOCCOCCOCCOCCOCCNC(=O)N[C@H]4CSCCC(=O)N5CN6CN(C5)C(=O)CCSC[C@H](NC(=O)[C@@H](CC(=O)O)NC(=O)[C@H](Cc5cccc7ccccc57)NC(=O)[C@@H]5CCCN5C4=O)C(=O)N[C@@H](CCSC)C(=O)N[C@@H](CCCCNC(=N)N)C(=O)N[C@@H](CC(=O)O)C(=O)N[C@@H](Cc4c[nH]c5ccccc45)C(=O)N[C@@H](CO)C(=O)N[C@@H]([C@@H](C)O)C(=O)N4CCC[C@H]4C(=O)N4C[C@H](O)C[C@H]4C(=O)N[C@@H](Cc4c[nH]c5ccccc45)C(=O)N[C@H](C(N)=O)CSCCC6=O)nn3)C(N)=O)NC1=O)C(=O)CCSC[C@H](NC(=O)[C@H](C)NC(C)=O)C(=O)N[C@@H]([C@@H](C)CC)C(=O)N[C@@H](CCC(=O)O)C(=O)N[C@@H](CCC(=O)O)C(=O)NCC(=O)N[C@@H](CCC(N)=O)C(=O)N[C@@H](Cc1ccc(O)cc1)C(=O)N2	Tumor necrosis factor receptor superfamily member 9/Nectin-4	reporter gene, agonist	HT-1376 coculture with reporter cells	–	reference: background	Emax	23 fold
Nc1ncnc2c1ncn2[C@@H]1O[C@H](COP(=O)(O)OP(=O)(O)OP(=O)(O)O)[C@@H](O)[C@H]1O	P2X purinoceptor 2 (P2RX2, Homo sapiens, UniProt Q9UBL9)	channel activation, agonist	transfected HEK293 cells	physiological divalent cations, added: 2 mM Ca2+ and 0.5 mM Mg2+	–	Hill coefficient	1.3 ± 0.2
N[C@@H](Cc1c[nH]c2ccccc12)C(=O)O	Transcription attenuation protein MtrB (mtrB, Halalkalibacterium halodurans, UniProt Q9KCC6)	isothermal titration calorimetry	–	25 °C, site 1 two-site model	–	ΔG	-7.8 ± 0.1 kcal/mol
Nc1nc(N)c2[nH]cnc2n1	T3, RNA, 2'-deoxy at 37-40 (Fusobacterium nucleatum)	MST	–	apparent	–	Kd	610 µM
O=c1ccn([C@@H]2O[C@H](COP(=O)(O)OP(=O)(O)O)[C@@H](O)[C@H]2O)c(=O)[nH]1	ABO (Homo sapiens, UniProt P16442, G235S/G268A/L266M/R176G)	ZZ-exchange NMR	–	free to compound-bound complex, added: H-disaccharide	–	exchange rate constant	2 ± 0.5 s⁻¹
Cc1cc(-c2cccc(-n3cc(COC(=O)[C@]4(C)C=C(C(=O)OC(C)(C)C)C(=O)CC4)nn3)c2)c(C)c2c1CNCC2	MAPK8 (Homo sapiens, UniProt P45983)	D-peptide binding, inhibitor, FP peptide displacement	–	200 µM	lower is stronger displacement	fraction bound	0.0542
C#CCNS(=O)(=O)c1ccc(CCN(Cc2cc(Cl)ccc2OCCC)C(=O)c2csc3ccccc23)cc1	Nlrp3 (Mus musculus, UniProt Q8R4B8)	IL-1β release	J774A.1	added: LPS, ATP	reference: -label	fold potency	2 fold
NC(=O)c1ccc[n+]([C@@H]2O[C@H](COP(=O)([O-])OP(=O)(O)OC[C@H]3O[C@@H](n4cnc5c(NCCNC(=O)CCCCCNC(=O)CCCCCNC(=O)CCCC[C@@H]6SC[C@@H]7NC(=O)N[C@@H]76)ncnc54)[C@H](O)[C@@H]3O)[C@@H](O)[C@H]2O)c1	PARP14 (Homo sapiens, UniProt Q460N5)	auto-ADP-ribosylation, substrate, DELFIA	–	–	–	Km	6 µM
